Assay results gathered from unrelated publications.
Lines come from different studies, so protocols differ. ± gives the spread as reported.
Organism: herpes simplex virus 1

| SMILES | assay | system | EC50 [µM] |
| --- | --- | --- | --- |
| Nc1ncn(CC(OCP(=O)(O)O)C(F)(F)F)c(=O)n1 (stereo not shown) | cytopathic effect | HEL, KOS, TK-deficient, acyclovir-resistant | > 100 |
| O=c1[nH]c(=O)c2ncn(C[C@@H](CO)OCP(=O)(O)O)c2[nH]1 | cytopathic effect | HEL, KOS TK- acyclovir-resistant | 20 |
| Nc1nc2c(ncn2COC(CO)CO)c(=O)[nH]1 | viral replication | HEL cells, KOS ACV-resistant TK-deficient | 58 |
| Cc1ccc(S(=O)(=O)N2C(=O)CSC2c2cccc(Br)c2)cc1 (stereo not shown) | viral cytopathicity | HEL, KOS | > 100 |
| O=c1[nH]c(=O)c2ncn(C[C@H](CF)OCP(=O)(O)O)c2[nH]1 | cytopathic effect | HEL, KOS TK- acyclovir-resistant | > 313 |
| Nc1ccn(C[C@@H](CO)OCP(=O)(O)O)c(=O)n1 | cytopathic effect | HEL, KOS, TK-deficient, acyclovir-resistant | 1.3 ± 0.3 |
| Cc1ccc(S(=O)(=O)N2C(=O)CSC2c2ccc(O)cc2)cc1 (stereo not shown) | viral cytopathicity | HEL, KOS TK-deficient acyclovir-resistant | > 100 |
| CC(C)OP(=O)(CO[C@H](CF)Cn1cnc(N)nc1=O)OC(C)C | cytopathic effect | HEL, KOS, TK-deficient, acyclovir-resistant | 32.5 ± 12.5 |
| Cc1ccc(S(=O)(=O)N2C(=O)CSC2c2ccc([N+](=O)[O-])cc2)cc1 (stereo not shown) | viral cytopathicity | HEL, KOS TK-deficient acyclovir-resistant | > 100 |
| O=c1[nH]c(=O)c2ncn(CCOCP(=O)(O)O)c2[nH]1 | cytopathic effect | HEL, KOS TK- acyclovir-resistant | 23.7 ± 14 |
| Cc1ccc(S(=O)(=O)N2C(=O)CSC2c2ccc(Cl)cc2)cc1 (stereo not shown) | viral cytopathicity | HEL, KOS | > 100 |
| CCCCCCCCCCCCCCCCOCCCOP(=O)(O)COCCn1cnc2c(=O)[nH]c(=O)[nH]c21 | cytopathic effect | HEL, KOS TK- acyclovir-resistant | 2 |
| Nc1nc2c(ncn2COCCO)c(=O)[nH]1 | cytopathic effect | HEL, KOS, TK-deficient, acyclovir-resistant | 48.9 ± 57 |
| Nc1ccn(C[C@@H](CO)OCP(=O)(O)O)c(=O)n1 | viral replication | HEL cells, KOS ACV-resistant TK-deficient | > 250 |
| O=c1[nH]c(=O)n([C@H]2C[C@H](O)[C@@H](CO)O2)cc1/C=C/Br | cytopathic effect | HEL, KOS, TK-deficient, acyclovir-resistant | 1.6 ± 0.6 |
| Cc1ccc(S(=O)(=O)N2C(=O)CSC2c2cccc([N+](=O)[O-])c2)cc1 (stereo not shown) | viral cytopathicity | HEL, KOS | > 100 |
